Results collected from several papers.
Every numbered part comes from another study and shows a few of its results, in no order.

Set 1 — method: universal PBM; molecule type: double-stranded DNA, one strand shown; sample: in vitro; concentration: not given; reading: higher = stronger binding; measurement: E-score
Target: Sal-like protein 4, full length isoform B (SALL4, Homo sapiens, UniProt Q9UJQ4-2, residues 1-616)
Notes: 8-mer, flanks averaged, mean of replicates
CTCAGTTC: -0.0014
ATGGAGCC: -0.105
ACCATCAC: 0.0102
ACGGTTAC: 0.0581
AAACCCCA: 0.0603

Set 2 — method: RNA Bind-n-Seq; molecule type: RNA; sample: in vitro; concentration: not given; notes: RNA with constant flanks, ends assumed; relative to: input RNA pool; reading: higher = stronger binding; measurement: bound/input enrichment
Target: RING finger protein unkempt homolog, zinc fingers 1-6, GST-SBP tag (UNK, Homo sapiens, UniProt Q9C0B0, residues 30-357)
UniProt Q9C0B0, sequence (30-357, looked up): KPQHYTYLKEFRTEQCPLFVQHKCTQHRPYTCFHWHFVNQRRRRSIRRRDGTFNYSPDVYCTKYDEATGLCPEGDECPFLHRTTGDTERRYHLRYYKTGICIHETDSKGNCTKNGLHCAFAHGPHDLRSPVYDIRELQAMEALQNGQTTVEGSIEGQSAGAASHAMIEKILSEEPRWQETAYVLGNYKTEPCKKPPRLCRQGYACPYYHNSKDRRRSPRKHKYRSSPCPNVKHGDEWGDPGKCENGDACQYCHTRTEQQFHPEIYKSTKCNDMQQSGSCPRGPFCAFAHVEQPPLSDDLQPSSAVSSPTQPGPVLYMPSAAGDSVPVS
GGGAGUUCUACAGUCCGACGAUCACCCAAGUUGGAGUCAUUCGAUGCCCAGUUUGCAGUCAAGAGUGUGCUGAGAGACACAUCACCGACAACUUUUUUGUGAAGGACACCACUGAAGUUCCUAGUAGUACAGUAGAAAAGUCUCAACAGAGGAUUGAGCAUCA: 6.79 ratio
GGGAGUUCUACAGUCCGACGAUCUCCCUCGCCUGUGGUAAACCAACACAGCGGGUUCUUACAAAAGAACCCAAAUCAAAGGAAACCGAAAAUGGUCAUAUAUUUACAGUUAAUGAUCAAUUCACAUCCAAACUACACAGAGUCCAACAGAGGAUUGAGCAUCA: 0.198 ratio
GGGAGUUCUACAGUCCGACGAUCUGAGCUGCCGAAGCCGCUGCCCUGCUCUCCGUCGCGGGCUCCUUUAAUCCCAUUGUUUCUUUCCGAUUCGCUUGGGCCUAGACGCCCUCGGGGCCCGAUAUUCGGGUUGGGCGGUACCGCCAACAGAGGAUUGAGCAUCA: 0.22 ratio

Set 3 — method: protein binding microarray; molecule type: double-stranded DNA, one strand shown; sample: in vitro; concentration: not given; relative to: not given; reading: higher = stronger binding; measurement: E-score
Target: Histone acetyltransferase KAT6A, both winged helices, GST fusion (KAT6A, Homo sapiens, UniProt Q92794, residues 1-181)
Notes: 8-mer, flanks averaged, mean of 2 arrays, mostly near background
Target sequence (chain): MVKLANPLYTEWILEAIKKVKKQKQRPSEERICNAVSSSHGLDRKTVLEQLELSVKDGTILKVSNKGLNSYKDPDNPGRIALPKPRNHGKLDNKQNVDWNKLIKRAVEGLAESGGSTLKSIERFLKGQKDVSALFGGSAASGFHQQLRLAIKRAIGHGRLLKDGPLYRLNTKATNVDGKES
CGACTTAA: -0.0424
CGGAACCC: 0.24
GCGGGGAA: 0.166
ACACAGGA: -0.102

Single results of other studies
PhoQ, residues 284 288 289 292 302 303 TSTLRA  fold induction (PhoP, residues 12 14 15 18 19 LHATL (Escherichia coli, UniProt P23836); Sort-seq, refers to: YFP reporter; E. coli; PhoQ-PhoP variant library, together with: 10 µM Mg2+; relative to: high Mg2+ state, higher = stronger signaling): 2.04

Repeated from above (set 2):
GGGAGUUCUACAGUCCGACGAUCUCCCUCGCCUGUGGUAAACCAACACAGCGGGUUCUUACAAAAGAACCCAAAUCAAAGGAAACCGAAAAUGGUCAUAUAUUUACAGUUAAUGAUCAAUUCACAUCCAAACUACACAGAGUCCAACAGAGGAUUGAGCAUCA: 0.198 ratio
